Assay results gathered from unrelated publications.
Every numbered part comes from another study and shows a few of its results, in no order.
UniProt P33981, sequence (whole entry, looked up): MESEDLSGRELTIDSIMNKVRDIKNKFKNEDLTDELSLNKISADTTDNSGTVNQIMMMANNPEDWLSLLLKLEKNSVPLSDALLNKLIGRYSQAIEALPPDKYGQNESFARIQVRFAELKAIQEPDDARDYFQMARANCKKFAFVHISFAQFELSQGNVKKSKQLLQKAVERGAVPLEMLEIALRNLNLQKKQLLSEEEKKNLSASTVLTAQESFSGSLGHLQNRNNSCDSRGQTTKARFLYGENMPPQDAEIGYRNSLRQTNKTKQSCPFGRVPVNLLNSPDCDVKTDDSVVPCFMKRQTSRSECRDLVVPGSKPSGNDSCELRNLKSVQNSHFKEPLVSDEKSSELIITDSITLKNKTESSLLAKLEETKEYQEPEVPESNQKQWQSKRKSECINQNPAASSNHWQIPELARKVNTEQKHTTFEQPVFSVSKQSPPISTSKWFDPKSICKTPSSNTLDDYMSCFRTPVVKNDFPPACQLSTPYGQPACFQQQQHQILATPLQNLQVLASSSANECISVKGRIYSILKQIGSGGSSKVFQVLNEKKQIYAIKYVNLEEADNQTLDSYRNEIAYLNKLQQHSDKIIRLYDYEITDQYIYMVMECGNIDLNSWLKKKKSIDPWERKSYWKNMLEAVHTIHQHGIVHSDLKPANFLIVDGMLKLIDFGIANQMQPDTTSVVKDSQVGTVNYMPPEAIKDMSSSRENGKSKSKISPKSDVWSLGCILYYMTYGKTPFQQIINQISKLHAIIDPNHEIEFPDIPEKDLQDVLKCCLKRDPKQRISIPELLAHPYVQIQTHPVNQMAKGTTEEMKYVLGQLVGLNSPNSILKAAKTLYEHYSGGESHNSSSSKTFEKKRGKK

Set 1
Structure (SMILES): CO[C@H]1CC[C@H](CNc2ccc(S(=O)(=O)NC(=O)c3ccc(N4CCN(CC5=C(c6ccc(Cl)cc6)CC(C)(C)CC5)CC4)cc3Oc3cnc4[nH]ccc4c3)cc2[N+](=O)[O-])CC1
Effect on: cell-free assay
Technique: competition with immobilised ligand
Tested at: 1 µM
target | remaining binding [%]
MAP3K1 (Homo sapiens, UniProt Q13233) | 100
Non-receptor tyrosine-protein kinase TYK2, JH1 (TYK2, Homo sapiens, UniProt P29597) | 98
STK10 (Homo sapiens, UniProt O94804) | 74
CHUK (Homo sapiens, UniProt O15111) | 100
FLT3 (Homo sapiens, UniProt P36888, D835H) | 78
TTK (Homo sapiens, UniProt P33981) | 82

Set 2
Target: Calcium/calmodulin-dependent protein kinase type II subunit alpha (CAMK2A, Homo sapiens, UniProt Q9UQM7)
UniProt Q9UQM7, sequence (whole entry, looked up): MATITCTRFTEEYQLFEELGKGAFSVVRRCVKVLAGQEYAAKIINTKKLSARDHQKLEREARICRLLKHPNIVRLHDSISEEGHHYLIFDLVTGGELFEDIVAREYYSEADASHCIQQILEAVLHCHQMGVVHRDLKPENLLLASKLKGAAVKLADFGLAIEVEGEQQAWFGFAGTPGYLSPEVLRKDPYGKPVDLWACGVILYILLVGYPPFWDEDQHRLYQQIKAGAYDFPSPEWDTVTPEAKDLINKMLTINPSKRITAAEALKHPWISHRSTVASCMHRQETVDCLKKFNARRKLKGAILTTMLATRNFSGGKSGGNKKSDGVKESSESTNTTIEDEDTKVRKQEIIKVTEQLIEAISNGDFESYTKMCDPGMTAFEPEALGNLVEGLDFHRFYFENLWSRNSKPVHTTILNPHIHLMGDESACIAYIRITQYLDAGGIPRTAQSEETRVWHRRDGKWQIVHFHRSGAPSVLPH
Effect on: enzyme activity
Mode: inhibitor
Tested at: 10 µM
SMILES | inhibition [%]
OC[C@H]1O[C@@H](Oc2c(O)cc(O)cc2/C=C/c2ccc(O)cc2)[C@H](O)[C@@H](O)[C@@H]1O | -1
C=C(CCC=C(C)C)[C@H]1CC[C@]2(C)[C@@H]1[C@H](O)C[C@@H]1[C@@]3(C)CC[C@H](O)C(C)(C)[C@@H]3[C@@H](O[C@@H]3O[C@H](CO)[C@@H](O)[C@H](O)[C@H]3O[C@@H]3O[C@@H](C)[C@H](O)[C@@H](O)[C@H]3O)C[C@]12C | -17
CN(C)CC/C=C1\c2ccccc2COc2ccccc21 | -12

Set 3
Target: Glycogen synthase kinase-3 beta (GSK3B, Homo sapiens, UniProt P49841)
UniProt P49841, sequence (whole entry, looked up): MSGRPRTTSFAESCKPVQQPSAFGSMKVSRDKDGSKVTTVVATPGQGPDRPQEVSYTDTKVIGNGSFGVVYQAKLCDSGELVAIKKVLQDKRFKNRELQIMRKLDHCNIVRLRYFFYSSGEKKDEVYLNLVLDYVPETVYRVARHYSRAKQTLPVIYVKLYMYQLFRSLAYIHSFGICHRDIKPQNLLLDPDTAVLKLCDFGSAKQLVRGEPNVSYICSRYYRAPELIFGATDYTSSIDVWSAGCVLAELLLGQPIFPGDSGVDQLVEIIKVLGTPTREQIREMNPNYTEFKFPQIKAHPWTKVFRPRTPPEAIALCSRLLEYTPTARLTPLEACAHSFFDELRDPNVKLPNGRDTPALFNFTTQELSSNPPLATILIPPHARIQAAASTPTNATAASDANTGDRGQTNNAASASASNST
Effect on: enzyme activity
Mode: inhibitor
Tested at: 0.5 µM
Relative to: control
SMILES | remaining activity
COc1cc2ncnc(Nc3ccc(F)c(Cl)c3)c2cc1OCCCN1CCOCC1 | 100%
Oc1ccc(-c2nc(-c3ccncc3)c(-c3ccc(F)cc3)[nH]2)cc1 | 76.6%
CO[C@H]1C[C@@H]2CC[C@@H](C)[C@@](O)(O2)C(=O)C(=O)N2CCCC[C@H]2C(=O)O[C@H]([C@H](C)C[C@@H]2CC[C@@H](O)[C@H](OC)C2)CC(=O)[C@H](C)/C=C(\C)[C@@H](O)[C@@H](OC)C(=O)[C@H](C)C[C@H](C)/C=C/C=C/C=C/1C | 109%
CN(C)c1ccc(C=C2C(=O)Nc3ccccc32)cc1 | 111%
C#Cc1cccc(Nc2ncnc3cc(OCCOC)c(OCCOC)cc23)c1 | 102%
Cn1c2ccccc2c2c3c(c4c5ccccc5n(CCC#N)c4c21)CNC3=O | 38.9%
O=C(Nc1cccc(Nc2cc(Nc3cccc(C(F)(F)F)c3)ncn2)c1)C1CC1 | 114%
Nc1ccc2ncnc(NCCc3ccc(Oc4ccccc4)cc3)c2c1 | 102%
O=C1NC(=O)C(c2cn(CCCn3ccnc3)c3ccccc23)=C1Nc1ccccc1 | 14.2%
O=C1NC(=O)C(c2cn(CCCO)c3ncccc23)=C1c1cnccn1 | 25.2%
NCCNc1ncc(C(N)=O)c(Nc2cccc(C(F)(F)F)c2)n1 | 96.8%
Cc1nc(-c2ccccc2)c(-c2ccncc2)o1 | 105%
CC(C)[C@H](CO)Nc1nc(Nc2cc(N)cc(Cl)c2)c2ncn(C(C)C)c2n1 | 103%
COc1cc2nccc(Oc3ccc(NC(=S)NC(=O)c4ccccc4C)cc3)c2cc1OC | 97.7%
N#CC(C#N)=C(N)/C(C#N)=C/c1ccc(O)cc1 | 89.5%
CCOC(=O)c1c(C)[nH]c(/C=C2\C(=O)Nc3ccccc32)c1C | 105%
Cc1cccc(-c2[nH]c(C(C)(C)C)nc2-c2ccc3c(c2)OCO3)n1 | 96.8%
OCC(O)CCON=C1C(c2c(O)[nH]c3ccccc23)=Nc2ccccc21 (stereo not shown) | 12.6%
O=S(=O)(c1cccc2cnccc12)N1CCCNCC1 | 102%
O=C(CCCc1ccc(-c2ccccc2F)cc1)Nc1ccc(O)cc1 | 99.4%
COc1ccc(OC)c2c(=S)c3ccccc3[nH]c12 | 61.3%
COc1ccc(C(=O)Nc2sc3c(c2C(N)=O)CCCC3)cc1OC | 97.7%
O=C(O)c1ccc2c3c1cccc3c(=O)n1c3ccccc3nc21 | 100%

Set 4
Target: Beta-1 adrenergic receptor (ADRB1, Homo sapiens, UniProt P08588)
UniProt P08588, sequence (whole entry, looked up): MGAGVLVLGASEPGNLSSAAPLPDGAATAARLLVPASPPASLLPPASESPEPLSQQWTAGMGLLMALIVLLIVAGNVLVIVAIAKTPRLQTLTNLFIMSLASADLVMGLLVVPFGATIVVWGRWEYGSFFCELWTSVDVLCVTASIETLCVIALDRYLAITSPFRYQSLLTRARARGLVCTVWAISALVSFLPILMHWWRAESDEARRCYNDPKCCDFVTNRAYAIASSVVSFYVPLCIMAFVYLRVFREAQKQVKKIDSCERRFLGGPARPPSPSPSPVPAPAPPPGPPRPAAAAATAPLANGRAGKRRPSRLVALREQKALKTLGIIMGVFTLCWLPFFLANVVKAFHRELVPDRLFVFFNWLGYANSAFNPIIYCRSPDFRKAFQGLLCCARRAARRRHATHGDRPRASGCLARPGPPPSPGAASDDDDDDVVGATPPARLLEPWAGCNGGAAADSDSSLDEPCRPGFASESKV
Mode: agonist
Structure (SMILES) | EC50
CC(O)CN1CCN(c2cnc3ccccc3n2)C(C)C1 (stereo not shown) | ≥ 100 µM
Cc1ccccc1-c1n[nH]c2ncc(-c3cccc(O)c3)nc12 | ≥ 100 µM
Cc1cccc(-c2n[nH]cc2-c2ccc(F)c(-c3cnn(CCO)c3)c2)n1 | ≥ 100 µM
COc1ccc2c(CSc3nnnn3-c3ccccc3)cc(=O)oc2c1 | ≥ 100 µM
Cc1ccc2c(CSc3nnnn3Cc3ccco3)cc(=O)oc2c1 | ≥ 100 µM
COc1ccccc1-c1nccc2c(=O)cc(N(C)C)oc12 | ≥ 100 µM

Set 5
Target: DNA polymerase theta, ATPase domain (POLQ, Homo sapiens, UniProt O75417)
UniProt O75417, sequence (whole entry, unmodified, looked up): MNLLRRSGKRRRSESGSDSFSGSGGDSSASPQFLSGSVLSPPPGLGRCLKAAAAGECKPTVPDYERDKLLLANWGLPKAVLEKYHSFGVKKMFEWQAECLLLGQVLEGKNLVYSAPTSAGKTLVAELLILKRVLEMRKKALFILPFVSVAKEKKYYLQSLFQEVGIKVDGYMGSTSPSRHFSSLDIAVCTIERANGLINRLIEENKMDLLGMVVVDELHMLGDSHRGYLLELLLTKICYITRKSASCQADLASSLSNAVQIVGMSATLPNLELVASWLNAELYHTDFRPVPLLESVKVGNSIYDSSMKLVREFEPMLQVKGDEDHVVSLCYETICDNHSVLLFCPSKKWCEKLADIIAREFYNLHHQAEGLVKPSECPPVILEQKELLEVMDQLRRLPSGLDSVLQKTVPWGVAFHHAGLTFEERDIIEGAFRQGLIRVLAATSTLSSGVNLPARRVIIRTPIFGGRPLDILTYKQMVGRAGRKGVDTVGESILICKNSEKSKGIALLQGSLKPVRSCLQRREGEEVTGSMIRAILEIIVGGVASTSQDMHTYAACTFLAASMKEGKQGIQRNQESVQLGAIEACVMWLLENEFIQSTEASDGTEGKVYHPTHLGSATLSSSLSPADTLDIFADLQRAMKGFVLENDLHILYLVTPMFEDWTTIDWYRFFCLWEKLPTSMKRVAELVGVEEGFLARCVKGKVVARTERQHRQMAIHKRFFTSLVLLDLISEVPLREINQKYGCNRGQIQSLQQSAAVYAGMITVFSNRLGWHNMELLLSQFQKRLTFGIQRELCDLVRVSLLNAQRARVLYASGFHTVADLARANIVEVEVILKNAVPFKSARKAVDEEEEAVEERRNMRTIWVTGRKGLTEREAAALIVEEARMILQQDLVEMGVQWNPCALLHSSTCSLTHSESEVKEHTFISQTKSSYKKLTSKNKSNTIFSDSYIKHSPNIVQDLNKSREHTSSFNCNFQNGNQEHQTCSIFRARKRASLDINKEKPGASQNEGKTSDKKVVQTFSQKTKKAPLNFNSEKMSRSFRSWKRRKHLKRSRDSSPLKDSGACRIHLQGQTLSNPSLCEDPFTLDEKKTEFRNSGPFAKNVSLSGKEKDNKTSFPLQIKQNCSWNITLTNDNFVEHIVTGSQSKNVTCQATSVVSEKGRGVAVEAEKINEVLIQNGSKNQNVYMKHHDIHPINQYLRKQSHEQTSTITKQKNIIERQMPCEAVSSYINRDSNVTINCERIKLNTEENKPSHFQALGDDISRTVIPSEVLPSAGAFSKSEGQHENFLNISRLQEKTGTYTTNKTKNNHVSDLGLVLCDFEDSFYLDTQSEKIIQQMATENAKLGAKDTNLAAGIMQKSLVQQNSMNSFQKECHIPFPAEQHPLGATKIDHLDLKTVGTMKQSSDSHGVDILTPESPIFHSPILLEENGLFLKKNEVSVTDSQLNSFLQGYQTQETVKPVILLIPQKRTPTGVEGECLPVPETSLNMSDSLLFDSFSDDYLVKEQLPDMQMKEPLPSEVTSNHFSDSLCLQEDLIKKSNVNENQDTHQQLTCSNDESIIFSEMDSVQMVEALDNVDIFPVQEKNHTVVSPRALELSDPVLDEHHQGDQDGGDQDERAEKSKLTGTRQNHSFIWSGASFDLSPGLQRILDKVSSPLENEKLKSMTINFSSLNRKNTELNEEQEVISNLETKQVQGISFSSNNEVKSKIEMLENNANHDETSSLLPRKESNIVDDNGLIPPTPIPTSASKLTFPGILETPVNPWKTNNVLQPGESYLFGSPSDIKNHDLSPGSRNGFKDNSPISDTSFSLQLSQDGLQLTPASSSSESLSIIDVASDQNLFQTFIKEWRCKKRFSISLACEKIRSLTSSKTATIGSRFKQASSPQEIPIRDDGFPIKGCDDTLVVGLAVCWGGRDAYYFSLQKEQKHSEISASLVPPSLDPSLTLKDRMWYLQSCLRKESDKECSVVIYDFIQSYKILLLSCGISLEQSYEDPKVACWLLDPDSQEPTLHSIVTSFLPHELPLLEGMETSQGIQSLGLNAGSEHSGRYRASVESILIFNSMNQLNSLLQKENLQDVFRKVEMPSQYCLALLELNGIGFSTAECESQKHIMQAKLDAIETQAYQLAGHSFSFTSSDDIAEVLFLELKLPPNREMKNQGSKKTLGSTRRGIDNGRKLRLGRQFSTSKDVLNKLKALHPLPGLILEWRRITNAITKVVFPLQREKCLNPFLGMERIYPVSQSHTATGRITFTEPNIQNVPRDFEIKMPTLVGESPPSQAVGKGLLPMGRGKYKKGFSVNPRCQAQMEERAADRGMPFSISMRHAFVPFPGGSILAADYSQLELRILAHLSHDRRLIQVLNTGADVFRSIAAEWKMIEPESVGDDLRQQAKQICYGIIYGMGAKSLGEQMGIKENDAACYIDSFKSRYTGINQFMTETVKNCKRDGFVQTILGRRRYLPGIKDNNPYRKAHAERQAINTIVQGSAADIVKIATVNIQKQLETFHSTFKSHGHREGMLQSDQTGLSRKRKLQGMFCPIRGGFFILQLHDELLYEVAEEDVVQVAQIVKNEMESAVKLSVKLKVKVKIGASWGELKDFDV
Effect on: enzyme activity
Mode: inhibitor
Tested at: 77 µM
Relative to: untreated
Compound | remaining activity [%]
Fc1ccc(C(OCCCc2cnc[nH]2)c2ccc(F)cc2)cc1 | 98.8
CC(C)(CO)C(O)C(=O)NCCCO (stereo not shown) | 91.7
Nc1c2c(nc3ccccc13)CCCC2O (stereo not shown) | 102
NCCCCNCCCN | 98.9

Set 6
SMILES: COc1ccc(-c2c(Nc3ccccn3)[nH]c3c(C4=CCCCC4)c(-c4ccccc4)nn3c2=O)cc1
Medium: plasma
Route: oral
assay | test system | conditions | plasma concentration, geometric mean [ng/mL]
 | cancer patients | 150 mg, 3 h post-dose, single dose | 1370
 | human patients | 400 mg once daily, 2 h, cycle 1 | 2810
LC-MS/MS | human | 200 mg twice daily, 0.5 h | 10300
 | human patients | 150 mg once daily, 6 h, cycle 1 | 4310
LC-MS/MS | human | 200 mg twice daily, 2 h, single dose | 1020
LC-MS/MS | human | 200 mg twice daily, 0.5 h, single dose | 60.3
 | cancer patients | 50 mg, 3 h post-dose, single dose | 435
